Measurements gathered from unrelated publications.
A part holds a random share of what one study measured. Substitutions count along the parent as printed.

Sample 1 — technique: RNA Bind-n-Seq; molecule type: RNA; sample: in vitro; concentration: 200 nM; setting: whole 134-nt RNA, ends assumed; together with: 150 mM LiCl; reference: input library; direction: higher = stronger binding; each molecule: 7-deaza-guanosine replaces G
Target: Fragile X messenger ribonucleoprotein 1, C-terminal low-complexity region (Fmr1, Mus musculus, UniProt P35922)
Strand | log2 enrichment
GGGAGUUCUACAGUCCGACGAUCAGUCCUGUGCUACACAUCGUAUGUACCGAAUCGGGUUUUUGGGAAAGGGUUUUUGGGAAAGUAUUAUGUUACGCCGUUCGGAUCUGCACUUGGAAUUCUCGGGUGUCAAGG | -2.72
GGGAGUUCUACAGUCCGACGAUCCUCAAGUCCUGUGCUACACAUCGUAUGUACCGAAUCGGGGCCGGGGCCGGCCGGAAAGUAUUAUGUUACGCCGUUCGGAUCUGCACUUCCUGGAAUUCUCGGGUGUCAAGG | 0.299
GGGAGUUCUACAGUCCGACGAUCAGUCCUGUGCUACACAUCGUAUGUACCGAAUCAAAUUUAAACCCCCAAAUUUUUAAAAAAGUAUUAUGUUACGCCGUUCGGAUCUGCACUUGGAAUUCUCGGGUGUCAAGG | -0.232
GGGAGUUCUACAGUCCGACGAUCGCAGGAAGUAAAAACAAAUGGAAAUGCUUCGGAUAAAAGCAGGGGUGGGGGUUGCUAAGGAAAGGGUGGGAUGGGAGUGGGUAAAGAGUUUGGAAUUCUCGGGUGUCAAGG | 1.75
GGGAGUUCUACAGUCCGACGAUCUCUGCUAAAGAGAAAGGAAAAUUUGAAGAUAUGGCAAAAGCGGACAAGGCCCGUUAUGAAAGAGAAAUGAAAACCUAUAUCCCUCCCAAAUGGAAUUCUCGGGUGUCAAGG | 1.52
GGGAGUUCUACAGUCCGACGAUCUCCUGUGCUACACAUCGUAUGUACCGAAUCGGGGAAAGGGGUUUUUUUGGGGAAAGGGGAAAGUAUUAUGUUACGCCGUUCGGAUCUGCAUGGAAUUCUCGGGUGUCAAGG | -0.566
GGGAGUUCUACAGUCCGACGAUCCCUCAAGUCCUGUGCUACACAUCGUAUGUACCGAAUCGGCGGGGCGGGGCGGAAAGUAUUAUGUUACGCCGUUCGGAUCUGCACUUCCAGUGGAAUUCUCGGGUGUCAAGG | -0.189
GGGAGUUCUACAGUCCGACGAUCUGUUUAAUAAACGUGAAGAUGUCUCGCAGUCCUGAUGCGAAGGAAGACCCUGUGGAGUGCCCUCUUUGCAUGGAGCCCUUGGAGAUAGAUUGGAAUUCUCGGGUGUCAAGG | -1.62
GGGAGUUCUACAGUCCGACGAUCAGUCCUGUGCUACACAUCGUAUGUACCGAAUCGGGGAGGGGUUUGGGGAAAAAGGGGAAAGUAUUAUGUUACGCCGUUCGGAUCUGCACUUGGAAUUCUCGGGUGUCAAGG | -0.935
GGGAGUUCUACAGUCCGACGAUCUCAAGUCCUGUGCUACACAUCGUAUGUACCGAAUCGGGAAAGGGAAAGGGAGGGAAAGUAUUAUGUUACGCCGUUCGGAUCUGCACUUCCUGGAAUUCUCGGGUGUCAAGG | -0.543
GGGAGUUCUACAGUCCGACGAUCGUCCUGUGCUACACAUCGUAUGUACCGAAUCGGGGUUUUUGGGGAAAAAGGGGUGGGGAAAGUAUUAUGUUACGCCGUUCGGAUCUGCACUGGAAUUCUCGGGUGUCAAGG | -1.55

Sample 2 — technique: protein-binding microarray; molecule type: double-stranded DNA, one strand shown; sample: in vitro; concentration: 250 nM; setting: 60-bp whole probe; together with: salmon DNA 0.4 mg/ml; reference: random background probes; direction: higher = stronger binding; all sequences stand within: GCCTAGCAC … GTCTTGATTCGCTTGACGCTGCTG
Target: Interferon regulatory factor 7, full length, phosphomimetic (IRF7, Homo sapiens, UniProt Q92985, residues 1-503, S101K/S471D/S472D/S475D/S476D/S477D/S483D/S484D/S487D)
Target sequence (chain): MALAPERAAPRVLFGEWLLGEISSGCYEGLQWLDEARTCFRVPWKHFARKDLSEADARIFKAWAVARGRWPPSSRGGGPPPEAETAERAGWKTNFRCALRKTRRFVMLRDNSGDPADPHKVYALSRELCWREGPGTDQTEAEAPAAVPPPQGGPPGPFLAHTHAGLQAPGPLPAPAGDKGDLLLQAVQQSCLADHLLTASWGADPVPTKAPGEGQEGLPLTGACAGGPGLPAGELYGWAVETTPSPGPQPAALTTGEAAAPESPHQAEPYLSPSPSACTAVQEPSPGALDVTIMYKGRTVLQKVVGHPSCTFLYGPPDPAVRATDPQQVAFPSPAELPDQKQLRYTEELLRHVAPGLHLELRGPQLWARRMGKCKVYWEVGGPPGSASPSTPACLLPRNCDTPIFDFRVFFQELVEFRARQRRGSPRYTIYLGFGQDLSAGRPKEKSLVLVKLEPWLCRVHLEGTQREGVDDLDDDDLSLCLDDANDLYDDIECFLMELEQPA
Strand | log fluorescence
CCCTTTTAAGTTCTCTGAAGGTGCTAG | 1.67 z-score
TTAGGTCTCCTTCTCCTGTAGTGCTAG | 0.573 z-score
TTAGGTTTCGGACTGGGTTCGTGCTAG | 3.71 z-score
TCATCCATGTGTTTAAAACTGTGCTAG | 0.16 z-score
TTAGCTCTCGGTCTCGGTTAGTGCTAG | 1.25 z-score
GACGGACTGGAACTGGGGACGTGCTAG | -0.347 z-score
GACGGTATCCGTTTCCTGACGTGCTAG | 1.89 z-score
GACGAACTGGGGTATCAAGACGTGCTA | -0.735 z-score
TGTTATTAAATTTTCACGGTGTGCTAG | 0.451 z-score
TAAGGACTGGGGTATCGGTTAGTGCTA | 0.19 z-score
TCACATTTTTTTTTTCTACTGTGCTAG | 1.25 z-score
GACGATCTCAGTCTCGAGACGTGCTAG | 0.348 z-score
CCTTGCATGTTTTTGACAAAGTGCTAG | -0.152 z-score
TTAGGTTGCGACTATCGGTTAGTGCTA | -0.212 z-score
TCACTTTCAGTTCTCCCACTGTGCTAG | 3.28 z-score
GAGGGTTTCGACTATCGGGACGTGCTA | 3.59 z-score
GACGGTATCGACTTACGGGACGTGCTA | 2.11 z-score
GACGATCTCAGTCACGAGACGTGCTAG | 0.0979 z-score
TCAAATTGTCCTTTCACACTGTGCTAG | 0.361 z-score
TCAGCATTGCTTCTATAACTGTGCTAG | -0.403 z-score
AGATTTTTTTTCCTAATTGAGTGCTAG | 1.09 z-score
TTAGGTTTCGGACTCGGTTAGTGCTAG | 5.14 z-score

Sample 3 — target: CCND2, cyclin fold, Cln2 fusion (human); technique: yeast growth competition, sequencing; sample: yeast; setting: weak parent motif; reference: not given; direction: higher = stronger binding
Starting sequence: PKN2 docking peptide (human); VSAVQKLDFSDTM
Substitution | normalised enrichment score
L7Q | -0.156
S10V | 0.425
S2Q | 0.793
Q5R | 2.7
V1H | 0.904
S2V | 0.443
T12Q | 0.569
F9C | -0.122
L7A | 0.133
A3E | -0.253
D8P | 0.403
S2P | 0.431
M13L | 0.546
S10I | 0.587
L7V | 0.143
D11Y | 0.302
D8A | 0.301
D8M | 0.653
Q5A L7A | -0.015
L7W | 0.233
D8T | 0.204
K6D | 0.0828
F9Q | 0.245
V1P | 0.566
M13F | 0.366

Sample 4 — technique: protein binding microarray; molecule type: double-stranded DNA, one strand shown; sample: in vitro; concentration: not given; reference: not given; direction: higher = stronger binding
Target: Histone acetyltransferase KAT6A, winged helix 1, GST fusion (KAT6A, Homo sapiens, UniProt Q92794, residues 1-85)
Setting: 8-mer, flanks averaged, mean of 2 arrays, mostly near background
Target sequence (chain): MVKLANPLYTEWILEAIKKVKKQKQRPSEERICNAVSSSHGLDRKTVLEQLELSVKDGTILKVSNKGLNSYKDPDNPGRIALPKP
Strand | E-score
GTACCACA | -0.192
AAAGTACG | 0.00417
GCCACGGA | 0.17
ACTAACCC | -0.118
GGTTCTAA | -0.00539
CCATCGCG | 0.32
CAGCAATG | -0.212
GGTCTTGA | -0.0591
GAACCTGA | -0.112
CCACCGAC | 0.0906
ATTCCCAC | -0.218
CCGGTCAG | 0.234
CAACAGAA | -0.137
CATCTTTA | -0.0595
CTGGCCTC | 0.0442
GAGGGGCA | -0.0426
CTAAAAAG | -0.02
AATACATT | -0.142

Sample 5 — technique: RNA Bind-n-Seq; molecule type: RNA; sample: in vitro; concentration: 365 nM; reference: no-protein control; direction: higher = stronger binding
Target: RNA binding protein fox-1 homolog 2, RRM domain, GST-SBP tag (RBFOX2, Homo sapiens, UniProt O43251-10, residues 100-194)
Setting: natural RNA segment, single round, ends assumed
Construct (chain): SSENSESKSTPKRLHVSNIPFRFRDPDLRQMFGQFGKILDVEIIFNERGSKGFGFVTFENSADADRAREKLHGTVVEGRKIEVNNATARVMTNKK
Strand | RBNS enrichment (R)
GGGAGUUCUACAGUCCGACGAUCGGAACAAAAGAAACUGGAAAGGAAGAUGCUUUAGGAACAUGUUUUGCUUUUUUAAAAUAUAUAUAUAUUUAUAAGAGAUCCUUUCCCAUUUAUUCUGGGAAGAUGUUUUUUGGAAUUCUCGGGUGCCAA | 0.994
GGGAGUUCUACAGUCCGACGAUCAAACAGAGAUCAGAUGAAGAUAACAAGCCAGAUGCUGGUCCUGAUGCUGCCGGCAAGGAGAGUGCAGCAAGAGAGAAAAUCCUCAGGGCUGAACCUGAGAUCUUGGAACUUGGAAUUCUCGGGUGCCAA | 0.671
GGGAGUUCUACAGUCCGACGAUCGGGCCUCCUCCAUCAGAUGUCUGGGCCUCCUCCAGCUGGUGCCUGGACAUUCACCGUUUAUACAUGGGCUCACACCCGUGUGAGCAGAGGAGACCCUGUGUUUUCAGUGGUGGAAUUCUCGGGUGCCAA | 0.23
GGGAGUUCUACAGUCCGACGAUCAGAGCUGCAGUUAGACGGGGUUACGGGGGCUAAAAGCAGAAAAAAAAUUCCAUUUCAUCGGGAUGGAACUGAAGGAUUUUAUUCUAUAAAGCGGCCCUGGUUGAAUCUGGUGGAAUUCUCGGGUGCCAA | 0.719
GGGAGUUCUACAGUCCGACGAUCCAGGCUUUGUGUGUUGCAUAUUUAAUAUUUCUACUACCACCGUAUGUCAACUGGGUAAAGCCUUCCAGAGCUCUCUAAAUACCUGAAAGACUUAAGCCUUUUUUUAAGUAUGGAAUUCUCGGGUGCCAA | 0.452
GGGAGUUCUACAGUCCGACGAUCGAACAACCUCACUGAGGAUUUCCUCCCGGCAGAAAAGCAGCAAGCUCUGCAAAUAUCCCAAAGUUAUGCCUCUGAACACAUGUCUUCUAUAUGCAAGUUUUGUGAAACCUUGGAAUUCUCGGGUGCCAA | 0.455
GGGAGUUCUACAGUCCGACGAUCCCUUUCCCCUCCCCUCUCUUCCUCCCCUCUGCACUUUGUUUACUUGUUUUGCACAGACGUGGGCCUGGGCCUUCUCAGCAGCCGCCUUCUAGUUGGGGGCUAGUCGCUGAUGGAAUUCUCGGGUGCCAA | 1.99
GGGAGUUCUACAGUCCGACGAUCCAGCCAUUGGUCACCUUGGGUGAUGCACCAGAUAGCAGGCAGAUGUUGGUUCAUUGGCCUUCGUCCUCUUUCCUCCUAAAAUAAUAUUGGCUUUACCAUCUUAACUCAGCUGGAAUUCUCGGGUGCCAA | 0.627
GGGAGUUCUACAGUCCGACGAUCAGCCGUCCCCGUCAAGGUGUGGGGCUCCUUUCAUGCAUUUGCUUCUUUUCCAGAGUGUGGAUUUGAACUACUUCCCCCUGCAAAGGGCCGCGUGCACCCUGCCGAGCUGCUGGAAUUCUCGGGUGCCAA | 1.01
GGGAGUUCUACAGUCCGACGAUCUUUUGGAACAUUUAUGUAAGAUUGAAAUGUAUUUGAGAACUGCAUUAAAACUUUUAACUAAAGCCCCAGACUCUUUUGCACCUGGCAGCCAGUCAGGCUGGAUUUGGCCAUGGAAUUCUCGGGUGCCAA | 0.587
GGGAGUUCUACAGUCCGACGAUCUCUUGCCUACUCCGGUGCCUCUACUUGACUGGCCAAUCAGCCCUUGAGGGGCAGGUUCCCCCAGGUGGUCCCCAGAUUUGCACUAAUGUUCCUCCCCUGGCCAGUUAGGGUGGAAUUCUCGGGUGCCAA | 0.372
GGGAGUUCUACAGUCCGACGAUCUUAGCCUUCCUUGAAGUAUUUGUGGGUGGAUGUUCCGUUAAAUUUUCCAGAAUGCAUUGCACAUCUUUUUAUGAAAUCUAGACUAUGAAAAGGUGAUAAACAUGAAGUAAUGGAAUUCUCGGGUGCCAA | 1

Repeated from above (sample 4):
Strand | E-score
CAGCAATG | -0.212
GGTCTTGA | -0.0591
GAACCTGA | -0.112
CCACCGAC | 0.0906
ATTCCCAC | -0.218
CCGGTCAG | 0.234
CAACAGAA | -0.137
CATCTTTA | -0.0595
CTGGCCTC | 0.0442
